{"data": "Experimental data of several laboratories", "note": "Compare with care: the assays were run in different laboratories. Values joined by “and” are separate records of one study, mostly repeats; a detail may differ. ± marks the error that the study gave."}
{"SMILES": "COc1cc2c3c(n(CCCN4CCCC4)c(=O)c2cc1OC)-c1nc2c(cc1C3=O)OCO2", "target": "MYC G-quadruplex DNA", "assay": "FRET melting", "setting": "2.0 µM, pH 7.0, added: K+ 10 mM", "measurement": "ΔTm", "value": "24.2 ± 1.6 °C"}
{"SMILES": "C[C@]12CC[C@@H]3c4ccc(O)cc4CC[C@H]3[C@@H]1CC[C@@H]2O", "target": "estrogen receptor 1 ligand-binding domain, Xenopus laevis", "assay": "reporter gene, agonist, GAL4 one-hybrid reporter", "system": "HepG2", "setting": "charcoal-stripped FBS", "measurement": "EC50", "value": "0.9 ± 0.1 nM"}
{"SMILES": "Cc1ncsc1-c1ccc(CNC(=O)[C@@H]2C[C@@H](O)CN2C(=O)[C@@H](NC(=O)C2(C#N)CC2)C(C)(C)C)cc1", "target": "F4/80+ macrophages", "assay": "immunostaining", "system": "Mus musculus, meningeal perivascular region", "setting": "concentration not given", "measurement": "macrophage density", "value": "11.4 cells/mm² and 8.74 cells/mm²"}
{"SMILES": "N[C@@H]1c2ccccc2OC12CCN(c1cnc3c(N4CCCc5ncccc54)n[nH]c3n1)CC2", "target": "ERK, human", "system": "patients with advanced solid tumours, monocytes, GM-CSF stimulated, blood", "setting": "≥40 mg, cycle 1 day 15, added: GM-CSF", "how to read": "reference: baseline (cycle 1 day 1)", "measurement": "pERK inhibition", "value": "72 to 95%"}
{"SMILES": "CCCCCCCC(=O)OCC(COC(=O)CCCCCCC)OC(=O)CCCCCCC", "target": "human FXRα-RXRα", "assay": "protein-protein interaction, antagonist, mammalian two-hybrid", "system": "COS-7 cells", "setting": "concentration not given, PGC1α co-transfected, added: GW4064", "how to read": "reference: GW4064 alone", "measurement": "relative interaction", "value": "62.3%"}
{"SMILES": "O=C(C#Cc1cn(Cc2ccccc2)c(=O)[nH]c1=O)NCc1ccccc1", "target": "MMP-12", "assay": "inhibitor, colorimetric", "setting": "20 µM", "measurement": "remaining MMP-12 activity", "value": "100 ± 5%"}
{"SMILES": "NCCOc1cc(C(=O)Nc2cc(OCCN)c3ccccc3n2)nc(C(=O)Nc2cc(OCCN)c3ccccc3n2)c1", "target": "c-kit1 G-quadruplex DNA", "assay": "FRET melting", "setting": "1 µM, pH 7.4, added: 60 mM potassium", "measurement": "ΔTm", "value": "35 ± 0.7 K"}
{"SMILES": "C=C(CC(=O)O)C(=O)O", "target": "SAR11_1346", "assay": "differential scanning fluorimetry", "system": "Candidatus Pelagibacter sp.", "setting": "in-house screen", "measurement": "thermal shift", "value": "3.53 °C"}
{"SMILES": "CC[C@@H]1[C@H](F)C(=O)N[C@@H]1COc1nccc2cc(C(N)=O)c(OC)cc12", "target": "CK1 delta and CK1 epsilon", "assay": "ATP-site binding, ActivX kinase profiling", "system": "THP-1 cell lysate", "setting": "Lys2 probe peptide", "measurement": "IC50", "value": "150 nM"}
{"SMILES": "O=C(O)[C@H](O)[C@@H](O)[C@H](O)[C@H](O)CO[C@H]1O[C@H](CO)[C@H](O)[C@H](O)[C@H]1O", "target": "SAR11_1346", "assay": "differential scanning fluorimetry", "system": "Candidatus Pelagibacter sp.", "setting": "in-house screen", "measurement": "thermal shift", "value": "3.01 °C"}
{"SMILES": "CN(C)c1ccc2cc(C(=O)NS(=O)(=O)c3ccccc3-c3ccccc3)oc2c1", "target": "off-target panel", "setting": "10 µM, 77 targets", "measurement": "inhibition", "value": "≤ 50%"}
{"SMILES": "O=C(Nc1cc(OCCN2CCCC2)c2ccccc2n1)c1cc(OCCN2CCCC2)cc(C(=O)Nc2cc(OCCN3CCCC3)c3ccccc3n2)n1", "target": "c-kit1 G-quadruplex DNA", "assay": "FRET melting", "setting": "1 µM, pH 7.4, added: 60 mM potassium", "measurement": "ΔTm", "value": "24.5 ± 0.7 K"}
{"SMILES": "C#Cc1cc(-c2cc(Nc3nc(N[C@@H](C)c4ccc(F)cn4)ncc3Cl)n[nH]2)ccc1C=O", "target": "FYN isoform b (human)", "assay": "kinase activity", "setting": "200 nM", "measurement": "inhibition", "value": "81.3% and 81.8%"}
{"SMILES": "C[n+]1cccc2cc(C=NNC(=O)c3ccc4ccc5ccc(C(=O)NN=Cc6ccc7c(ccc[n+]7C)c6)nc5c4n3)ccc21.[I-].[I-]", "target": "hp2 hairpin duplex DNA", "assay": "FRET melting", "setting": "1 µM", "measurement": "ΔTm", "value": "1.7 ± 0.6 °C"}
{"SMILES": "N[C@@H](Cc1ccccc1)C(=O)O", "target": "SAR11_1346", "assay": "differential scanning fluorimetry", "system": "Candidatus Pelagibacter sp.", "setting": "in-house screen", "measurement": "thermal shift", "value": "2.01 °C"}
{"SMILES": "O=C(NN=Cc1ccc(C[n+]2ccccc2)cc1)c1ccc2ccc3ccc(C(=O)NN=Cc4ccc(C[n+]5ccccc5)cc4)nc3c2n1.[Br-].[Br-]", "target": "hp2 hairpin duplex DNA", "assay": "FRET melting", "setting": "1 µM", "measurement": "ΔTm", "value": "1.1 ± 0.2 °C"}
{"SMILES": "CN(C)CCCOc1cc(NC(=O)c2cc(Cl)cc(C(=O)Nc3cc(OCCCN(C)C)c4ccccc4n3)n2)nc2ccccc12", "target": "c-kit1 G-quadruplex DNA", "assay": "FRET melting", "setting": "1 µM, pH 7.4, added: 60 mM potassium", "measurement": "ΔTm", "value": "31.6 ± 0.5 K"}
{"SMILES": "CCOc1ccc(N(C)S(=O)(=O)c2cc(Cl)sc2C(=O)Nc2cc(Cl)cc(C(=O)O)c2)cc1OC", "target": "nuclear hormone receptor panel", "assay": "CRT", "setting": "concentration not given", "measurement": "activity", "value": "inactive"}
{"SMILES": "COc1cc2c3c(n(CCCN4CCC[C@H]4CO)c(=O)c2cc1OC)-c1nc2c(cc1C3=O)OCO2", "target": "MYC G-quadruplex DNA", "assay": "FRET melting", "setting": "2.0 µM, pH 7.0, added: K+ 10 mM", "measurement": "ΔTm", "value": "28.4 ± 1.2 °C"}
{"SMILES": "CC(Nc1nc(N2CCCC2)nc2ccccc12)c1ccccc1 (stereo not shown)", "target": "importin α/β1", "assay": "cMyc nuclear import, high content imaging", "system": "HeLa Kyoto reporter", "setting": "15.8 µM, 2 h", "measurement": "cells with nuclear reporter", "value": "92.5%"}
{"SMILES": "CO[C@H]1O[C@H](COS(=O)(=O)O)[C@@H](O[C@@H]2O[C@@H](C(=O)O)[C@@H](O[C@H]3O[C@H](COS(=O)(=O)O)[C@@H](O[C@@H]4O[C@H](C(=O)O)[C@@H](O[C@H]5O[C@H](COS(=O)(=O)O)[C@@H](O)[C@H](O)[C@H]5NS(=O)(=O)O)[C@H](O)[C@H]4O)[C@H](OS(=O)(=O)O)[C@H]3NS(=O)(=O)O)[C@H](O)[C@H]2OS(=O)(=O)O)[C@H](O)[C@H]1NS(=O)(=O)O", "target": "human CCL7", "assay": "nano-ESI MS", "setting": "10 µM, pH 6.8, CCL7 12.5 µM", "measurement": "association constant", "value": "130000 ± 10000 M⁻¹"}
{"SMILES": "NCCCOc1cc(NC(=O)c2cc(OCc3c[nH]nn3)cc(C(=O)Nc3cc(OCCCN)c4ccccc4n3)n2)nc2ccccc12", "target": "c-kit1 G-quadruplex DNA", "assay": "FRET melting", "setting": "1 µM, pH 7.4, added: 60 mM potassium", "measurement": "ΔTm", "value": "9.8 ± 0.5 K"}
{"SMILES": "Oc1ccccc1-c1n[nH]cc1-c1ccnc2ccccc12", "target": "MCK1 (Candida albicans)", "assay": "kinase binding, MIB/MS competition", "system": "Candida albicans lysate", "setting": "1 µM", "how to read": "reference: DMSO", "measurement": "log2 fold change", "value": 0.11}
{"SMILES": "COc1cc(C)c2cc(C3(NS(=O)(=O)c4ccccc4-c4ccccc4)COC3)oc2c1", "target": "human estrogen receptor alpha", "assay": "reporter gene", "system": "MCF7-MVLN", "measurement": "IC50", "value": "18300 nM"}
{"SMILES": "CCCCCCCC(=O)OC[C@H](COP(=O)(O)O[C@@H]1[C@H](O)[C@H](O)[C@@H](OP(=O)(O)O)[C@H](OP(=O)(O)O)[C@H]1O)OC(=O)CCCCCCC", "target": "Kv7.2/Kv7.3(EEE) mutant channel", "assay": "activator", "setting": "model 5, efficacy fixed to wild type", "measurement": "cooperativity factor", "value": 6.64}
{"SMILES": "CC(=O)N[C@H](C(=O)N1C[C@H](O)C[C@H]1C(=O)NCc1ccc(-c2scnc2C)cc1)C(C)(C)SCCCCCCNC(=O)C[C@@H]1N=C(c2ccc(Cl)cc2)c2c(sc(C)c2C)-n2c(C)nnc21", "target": "DNA-PKcs (human)", "assay": "TMT proteomics", "system": "HeLa", "setting": "1 µM, 24 h", "how to read": "reference: DMSO", "measurement": "relative protein abundance", "value": 1.01}
{"SMILES": "CCCCC1=NC2(CCCC2)C(=O)N1Cc1ccc(-c2ccccc2S(=O)(=O)Nc2noc(C)c2C)c(COCC)c1", "target": "P-gp", "assay": "substrate, SIVA model", "system": "Caco-2", "measurement": "Km", "value": "8.03 µM"}
{"SMILES": "NCCOc1cc(NC(=O)c2cccc(C(=O)Nc3cc(OCCN)c4ccccc4n3)n2)nc2ccccc12", "target": "c-kit1 G-quadruplex DNA", "assay": "FRET melting", "setting": "1 µM, pH 7.4, added: 60 mM potassium", "measurement": "ΔTm", "value": "25.6 ± 0.7 K"}
{"SMILES": "COc1cc2c3c(n(CCCn4ccnc4)c(=O)c2cc1OC)-c1nc2c(cc1C3=O)OCO2", "target": "MYC G-quadruplex DNA", "assay": "FRET melting", "setting": "2.0 µM, pH 7.0, added: K+ 10 mM", "measurement": "ΔTm", "value": "12.1 ± 1.7 °C"}
{"SMILES": "NCCOc1cc(C(=O)Nc2cc(OCCN3CCCC3)c3ccccc3n2)nc(C(=O)Nc2cc(OCCN3CCCC3)c3ccccc3n2)c1", "target": "c-kit1 G-quadruplex DNA", "assay": "FRET melting", "setting": "1 µM, pH 7.4, added: 60 mM potassium", "measurement": "ΔTm", "value": "31.2 ± 0.9 K"}
{"SMILES": "CCNCCCn1c2c(c3cc(OC)c(OC)cc3c1=O)C(=O)c1cc3c(nc1-2)OCO3", "target": "MYC G-quadruplex DNA", "assay": "FRET melting", "setting": "2.0 µM, pH 7.0, added: K+ 10 mM", "measurement": "ΔTm", "value": "31.6 ± 0.8 °C"}
{"SMILES": "COc1cc(C(=O)Nc2cc(OC)c3ccccc3n2)nc(C(=O)Nc2cc(OC)c3ccccc3n2)c1", "target": "c-kit1 G-quadruplex DNA", "assay": "FRET melting", "setting": "1 µM, pH 7.4, added: 60 mM potassium", "measurement": "ΔTm", "value": "1.2 ± 0.6 K"}
{"SMILES": "CC(C)c1noc2ncc(C(=O)c3ccccc3O)cc12", "target": "rat Kv2.1", "assay": "ion current, whole-cell patch-clamp", "setting": "10 µM", "measurement": "inhibition", "value": "3.02%"}
{"SMILES": "O=C(O)[C@@H](O)[C@@H](O)[C@H](O)[C@@H](O)C(=O)O", "target": "SAR11_1346", "assay": "differential scanning fluorimetry", "system": "Candidatus Pelagibacter sp.", "setting": "in-house screen", "measurement": "thermal shift", "value": "2.78 °C"}
{"SMILES": "c1coc(-c2n[nH]cc2-c2ccnc3ccccc23)c1", "target": "CKA1 (Candida albicans)", "assay": "kinase binding, MIB/MS competition", "system": "Candida albicans lysate", "setting": "10 µM", "how to read": "reference: DMSO", "measurement": "log2 fold change", "value": -0.14}
{"SMILES": "CCOc1ccc(C(C)(CC(=O)O)C(=O)O)cc1 (stereo not shown)", "target": "rat AA3", "setting": "20 µM", "measurement": "inhibition", "value": "inhibited"}
{"SMILES": "CCC(N)C(=O)O (racemic)", "target": "SAR11_1346", "assay": "differential scanning fluorimetry", "system": "Candidatus Pelagibacter sp.", "setting": "in-house screen", "measurement": "thermal shift", "value": "5.66 °C"}
{"SMILES": "NCCCOc1cc(NC(=O)c2cc(Cl)cc(C(=O)Nc3cc(OCCCN)c4ccccc4n3)n2)nc2ccccc12", "target": "c-kit1 G-quadruplex DNA", "assay": "FRET melting", "setting": "1 µM, pH 7.4, added: 60 mM potassium", "measurement": "ΔTm", "value": "29.1 ± 0.7 K"}
{"SMILES": "COc1cc2c3c(n(CCCN4CCC[C@H]4C(N)=O)c(=O)c2cc1OC)-c1nc2c(cc1C3=O)OCO2", "target": "MYC G-quadruplex DNA", "assay": "FRET melting", "setting": "2.0 µM, pH 7.0, added: K+ 10 mM", "measurement": "ΔTm", "value": "17.1 ± 1.6 °C"}
{"SMILES": "CC(=O)NCCCC[C@H](NC(=O)CNC(=O)[C@H](CCCNC(=N)N)NC(C)=O)C(=O)Nc1ccc2c(C)cc(=O)oc2c1", "target": "human Y225F/Y782F mutant enzyme", "assay": "substrate, fluorogenic", "measurement": "kcat", "value": "0.048 ± 0.004 s⁻¹"}
